Measured values from different studies.
Parts stem from different laboratories: compare values within a part only.
Chain of UniProt O43390 (145-430, looked up): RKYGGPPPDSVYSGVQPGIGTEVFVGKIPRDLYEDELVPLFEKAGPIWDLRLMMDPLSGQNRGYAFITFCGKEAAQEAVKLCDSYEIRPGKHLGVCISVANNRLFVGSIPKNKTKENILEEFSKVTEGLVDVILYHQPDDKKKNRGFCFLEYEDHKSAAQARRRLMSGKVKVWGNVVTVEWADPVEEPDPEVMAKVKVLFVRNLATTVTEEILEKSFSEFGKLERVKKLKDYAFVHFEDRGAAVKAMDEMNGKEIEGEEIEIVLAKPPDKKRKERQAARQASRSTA

Set 1 — method: protein-binding microarray; molecule type: double-stranded DNA, one strand shown; sample: in vitro; tested at: not given; reading: higher = stronger binding
Target: Protein C-ets-1 (ETS1, Homo sapiens, UniProt P14921, residues 1-441, full length assumed)
Notes: k-mer, scored over probes, only values ≥0.25
Construct (chain): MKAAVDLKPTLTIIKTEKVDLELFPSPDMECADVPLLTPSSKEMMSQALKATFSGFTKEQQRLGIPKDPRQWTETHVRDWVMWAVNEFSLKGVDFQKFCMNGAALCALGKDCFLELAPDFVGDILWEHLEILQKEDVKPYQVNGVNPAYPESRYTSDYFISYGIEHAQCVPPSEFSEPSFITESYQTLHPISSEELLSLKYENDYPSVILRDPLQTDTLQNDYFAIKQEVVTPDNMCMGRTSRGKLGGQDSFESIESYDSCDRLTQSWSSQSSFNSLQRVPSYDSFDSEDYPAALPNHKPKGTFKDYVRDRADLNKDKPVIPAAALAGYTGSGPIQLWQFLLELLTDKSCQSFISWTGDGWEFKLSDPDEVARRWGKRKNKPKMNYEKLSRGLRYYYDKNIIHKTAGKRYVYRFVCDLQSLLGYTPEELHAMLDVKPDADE
`AGGAACTC` has an E-score of 0.26.
With `CTTCCTTA` the E-score was 0.37.
For `CCCAGGAA`, the E-score was 0.37.
With `AGGACATC` the E-score was 0.294.
For `CTCCCCGC`, the E-score was 0.303.
The E-score of `TCCTGGAA` is reported as 0.383.
With `AACATCCC` the E-score was 0.312.
For `CATCCTCA`, the E-score was 0.264.
`CCTACTTC` has an E-score of 0.275.
`GATGTGTA` gave an E-score of 0.258.
`AAGGAAAC` gave an E-score of 0.386.

Set 2 — method: RNA Bind-n-Seq; molecule type: RNA; sample: in vitro; tested at: not given; baseline: input RNA pool; reading: higher = stronger binding
Target: RING finger protein unkempt homolog, zinc fingers 1-6, GST-SBP tag (UNK, Homo sapiens, UniProt Q9C0B0, residues 30-357)
Chain of UniProt Q9C0B0 (30-357, looked up): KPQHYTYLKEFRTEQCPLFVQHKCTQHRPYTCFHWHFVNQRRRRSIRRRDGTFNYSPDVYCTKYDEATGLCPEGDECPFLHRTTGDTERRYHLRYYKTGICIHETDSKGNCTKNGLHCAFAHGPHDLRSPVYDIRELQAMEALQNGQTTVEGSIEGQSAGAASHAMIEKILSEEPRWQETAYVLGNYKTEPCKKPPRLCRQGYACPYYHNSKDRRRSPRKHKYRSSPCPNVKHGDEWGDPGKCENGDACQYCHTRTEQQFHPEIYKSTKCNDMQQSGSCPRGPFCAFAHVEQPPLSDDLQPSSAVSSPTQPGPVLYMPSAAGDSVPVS
Notes: RNA with constant flanks, human-mouse chimeric sites, ends assumed
`GGGAGUUCUACAGUCCGACGAUCUCUGGUCACACUCGUGUGUAUGGUGUUUGCUUUGUUGACACUUCACUGGGCAAGUUUUUCAUCGGCCAGUUUUCAGAUGACCGCCACUGUUCCAGAUUUAGGACGCUAGUGGCUCACUAUCAACAGAGGAUUGAGCAUCA` gave a bound/input enrichment of 0.242 ratio.
The bound/input enrichment of `GGGAGUUCUACAGUCCGACGAUCGUGACAGGUGUUAAGAUUUCCCCUCAGCAAAGAAGUGUAGCAGUGACCAUAAUUCCAUCUGUGGUGAGUGCCAGUCAGAUUGUGGAGCUGGUCCCAGACCUCAGUUUAGACAUGGGAACUCAACAGAGGAUUGAGCAUCA` is reported as 0.378 ratio.
For `GGGAGUUCUACAGUCCGACGAUCACUCAGAGAUUAUAUUCCCAAAGUGCUGGGAGUAAAGGUGUGGCCACCACACCUAACUUGAUGGAUAUAUAUUUUUUUUAAUAUGAAUCUUCCUGUUCUUCAUCCAGAGAAAGAUUUGUUCAACAGAGGAUUGAGCAUCA`, the bound/input enrichment was 0.427 ratio.
`GGGAGUUCUACAGUCCGACGAUCGAACCUGCUCUCUCUGAUGAAGAUGAGGAAGACAAUGAUGAUGUUGAACCCAUUUCUGAAUUUCGAUUUGUGCCCAGUGAUAAAUCAGCAUUGGAGGCGAUGUUCACAGCAAUGUGUGAGCAACAGAGGAUUGAGCAUCA` has a bound/input enrichment of 0.26 ratio.

Set 3 — method: competition protein-binding microarray; molecule type: double-stranded DNA, one strand shown; sample: in vitro; tested at: 2 µM; added: Pho4 competitor, 0.05 µM; reading: higher = stronger binding; constant ends, left off below: … GTCTTGATTCGCTTGACGCTGCTG
Target: Centromere-binding protein 1, full length, His-tagged (CBF1, Saccharomyces cerevisiae, UniProt P17106, residues 1-351)
Chain of UniProt P17106 (whole entry, looked up): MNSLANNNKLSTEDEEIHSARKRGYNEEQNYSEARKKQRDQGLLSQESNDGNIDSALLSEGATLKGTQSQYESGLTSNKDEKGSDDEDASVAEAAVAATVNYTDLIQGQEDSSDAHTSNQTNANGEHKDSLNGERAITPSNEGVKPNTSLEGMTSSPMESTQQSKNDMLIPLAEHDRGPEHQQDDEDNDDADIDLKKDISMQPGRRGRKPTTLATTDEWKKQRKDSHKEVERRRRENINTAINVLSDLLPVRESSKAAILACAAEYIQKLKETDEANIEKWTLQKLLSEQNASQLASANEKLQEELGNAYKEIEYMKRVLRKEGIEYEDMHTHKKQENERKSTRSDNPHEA
Notes: whole 60-bp probe, lowest competitor level
For `CCGGTTAACGTTGTGGACGTGTTGGCGATGCCTCAA`, the fluorescence intensity was 58.4 a.u.
For `AAAGCGGTAATTTGATGTGTGGGTGCAGATATCTAT`, the fluorescence intensity was 77 a.u.
For `CGGGGTTAAGTTTGTCACACAACTTGCTTGCAGCAG`, the fluorescence intensity was 72.2 a.u.
With `CTTCTGTAAATTTGTTATGTGGGTGGACGCGCCCCG` the fluorescence intensity was 88.2 a.u.
For `CGGGCTGATAACTAGATGGTGTGTTCGGGCAGTATA`, the fluorescence intensity was 54.3 a.u.

Further values, each from its own experiment
For `GSPLKKLFTSTAL`, the binding score was 0.21 (human cyclin A2; peptide binding, competitive growth sequencing; peptide, Saccharomyces cerevisiae, cyclin A2-Cln2 fusion strain; concentration not given, combined libraries; baseline: unfused Cln2 strain, direction not given).
`AAAAAAAA (biotin)` has a signal ratio of 0.12 (Heterogeneous nuclear ribonucleoprotein R, RRM domains 1-3 (HNRNPR, Homo sapiens, UniProt O43390, residues 145-430); protein domain microarray; RNA, in vitro; not given, poly(A) 8-mer RNA, whole probe, immobilized GST-fusion domains, most near background; baseline: GST loading signal, higher = stronger binding).

Repeated from above (set 1):
The E-score of `TCCTGGAA` is reported as 0.383.
With `AACATCCC` the E-score was 0.312.
